Experimental data gathered from unrelated publications.
“And” joins repeats or separate records; there may be more than shown. Numbers after ± are the reported error.
Chain of UniProt P10635 (whole entry, looked up): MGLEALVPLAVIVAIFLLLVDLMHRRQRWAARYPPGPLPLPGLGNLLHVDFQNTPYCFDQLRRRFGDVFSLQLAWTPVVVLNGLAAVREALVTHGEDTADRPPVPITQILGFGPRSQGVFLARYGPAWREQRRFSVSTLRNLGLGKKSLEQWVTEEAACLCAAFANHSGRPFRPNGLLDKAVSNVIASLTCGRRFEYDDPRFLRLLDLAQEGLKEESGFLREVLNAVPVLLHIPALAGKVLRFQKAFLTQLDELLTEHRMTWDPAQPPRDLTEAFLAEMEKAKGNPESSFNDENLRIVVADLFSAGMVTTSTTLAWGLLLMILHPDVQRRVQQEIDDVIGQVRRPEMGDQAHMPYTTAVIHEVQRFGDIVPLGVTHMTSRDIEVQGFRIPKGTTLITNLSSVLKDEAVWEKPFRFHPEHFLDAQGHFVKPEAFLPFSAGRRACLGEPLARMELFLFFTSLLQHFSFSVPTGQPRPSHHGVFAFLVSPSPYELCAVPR
Chain of UniProt Q16539 (whole entry, looked up): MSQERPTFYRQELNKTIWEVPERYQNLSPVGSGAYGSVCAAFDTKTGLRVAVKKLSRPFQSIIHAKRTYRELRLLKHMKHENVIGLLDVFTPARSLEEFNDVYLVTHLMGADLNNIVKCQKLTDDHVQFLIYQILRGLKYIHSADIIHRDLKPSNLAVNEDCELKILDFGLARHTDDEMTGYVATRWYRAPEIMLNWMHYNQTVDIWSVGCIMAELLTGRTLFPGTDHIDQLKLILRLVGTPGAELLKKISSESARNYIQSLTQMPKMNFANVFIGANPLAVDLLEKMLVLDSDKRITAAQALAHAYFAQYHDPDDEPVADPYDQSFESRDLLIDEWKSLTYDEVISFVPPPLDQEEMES

| Structure (SMILES) | tested on | assay | test system | setting | how to read | endpoint | result |
| --- | --- | --- | --- | --- | --- | --- | --- |
| COC(=O)N1c2ccc3c(nc(Cc4ccccc4)n3[C@@H]3CCC[C@@H](C(=O)O)C3)c2CC[C@@H]1C | ZR-75-30 | cell growth or viability, ATP luminescence | – | 10 days | – | IC50 | 0.1 µM |
| Nc1ncc(-c2cc(-c3cnn(CC(F)(F)F)c3)ncc2F)nc1C(=O)NC1CNCC(F)C1 (stereo not drawn) | SIK2 | KINOMEscan | – | 1 µM | reference: DMSO control | remaining binding | 68% |
| COC1CN([C@H]2CC[C@H]([C@@]3(C)Oc4c(Cl)cc(C(=O)NCc5c(SC)cc(C)[nH]c5=O)c(C)c4O3)CC2)C1 | – | RNA-seq, item: MMP14 mouse homolog | mouse, HT-1376 xenograft, whole blood | dose not given | reference: vehicle | log2 fold change | 0.0565 |
| CC[C@H](C)C(=O)O[C@H]1C[C@@H](C)C=C2C=C[C@H](C)[C@H](CC[C@@H]3CC=CC(=O)O3)[C@H]21 | T84 | short-circuit current, inhibitor | – | with: forskolin 20 µM | – | IC50 | ~6.32 µM |
| C=CCOCO[C@H](C(=O)NC[C@@H]1C[C@@H](OC)C(C)(C)[C@@H](C[C@@H](COC)OC)O1)[C@@]1(OC)CC(=C)[C@@H](C)[C@@H](C)O1 | Renca | cell viability, sulforhodamine B | – | 72 h, 37 °C, without H2O2 | – | IC50 | 2.46 ± 0.075 µM |
| O=C1CS/C(=N\N=C\c2cccc3cc4ccccc4nc23)N1c1ccc([N+](=O)[O-])cc1 | PATU | cell proliferation, MTT | – | 48 h | – | IC50 | > 50 µM |
| Cc1nc(C(=O)NC2(O)C(=O)c3ccccc3C2=O)cs1 | HEK293-A GFP-LC3B | LC3B puncta formation | – | 22 h, with: chloroquine, torin1 | – | IC50 | > 20 µM |
| O=S(=O)(N[C@@H]1CCC[C@H](N2c3ccccc3Oc3ccccc32)[C@H]1O)c1ccc(OC(F)(F)F)cc1 | E98 | cell viability, CellTiter-Glo | – | 72 h | – | IC50 | 15.5 µM |
| CCOC(=O)/C=C1\S/C(=N\N=C\c2cccc3cc4ccccc4nc23)N(c2ccc([N+](=O)[O-])cc2)C1=O | PATU | cell proliferation, MTT | – | 48 h | – | IC50 | > 50 µM |
| Cc1ccc([N+](=O)[O-])cc1S(=O)(=O)N(C)/N=C/c1cnc2ccc(Br)cn12 | SN12C | MTS | – | NCI60 panel | – | IC50 | 0.468 µM |
| CCCC[C@H](NC(=O)COCCOCCNC(=O)CN1CCN(CC(=O)O)CCN(CC(=O)O)CC1)C(=O)N[C@H]1CC(=O)NCCCC[C@@H](C(N)=O)NC(=O)[C@H](Cc2c[nH]c3ccccc23)NC(=O)[C@H](CCCNC(=N)N)NC(=O)[C@@H](Cc2ccccc2)NC(=O)[C@H](Cc2c[nH]cn2)NC1=O [technetium-99m labelled] | – | – | C57 mouse, intestine | intravenous, 0.037 MBq, 4 h | – | tissue uptake | 5.5 ± 0.65 %ID |
| CN1CCCNC(=O)c2cccc(c2)C(=O)NCCCN(C)CCCNc2cccc3c2C(=O)c2cccc(c2C3=O)NCCC1 | SAS | RNA-Seq, item: ZFP41 mRNA | – | 1 µM, 6 h | reference: untreated cells | log2 fold change | 0.893 |
| COC(=O)c1ccc(NC(=O)Nc2ccc(C(F)(F)F)cc2)cc1 | LAD2 | degranulation | – | – | – | IC50 | 4.77 µM |
| CCN(C(=O)c1cc(F)ccc1Oc1nncnc1N1CCC2(C1)CN([C@H](CCCN(C)CCOC)C(C)C)C2)C(C)C | MV4-11 (KMT2A-AF4, FLT3-ITD) | mRNA level, QuantiGene multiplex, item: PBX3 | – | – | – | IC50 | 0.028 ± 0.003 µM |
| COc1ccc2nc(NC(=O)c3ccc(C(N)c4ccccc4)cc3)sc2c1 (stereo not drawn) | NCI-H2122 | cell growth or viability | – | – | – | IC50 | 0.03 µM |
| Cc1ncsc1-c1ccc(C(C)NC(=O)C2CC(O)CN2C(=O)C(NC(=O)CCCCCCCCCCN2CCCC(Nc3ncc(Cl)c(Nc4ccccc4S(=O)(=O)C(C)C)n3)C2)C(C)(C)C)cc1 (stereo not drawn) | 22Rv1 | RNA-seq, item: YAE1 mRNA | – | concentration not given | reference: DMSO | log2 fold change | -1.01 |
| O=C1C2CC3CC1CC(C(=O)N1CCN(c4ccc([N+](=O)[O-])c5ncccc45)CC1)(C3)C2 | Salmonella typhimurium | Ames test | TA1535 | 0.05 µg/well, with S9 activation | – | revertant colony count | 1 colonies/well |
| COc1ccc(Br)c2c1OC1=C(C(=O)CCC1)C2c1c[nH]c2ccccc12 (stereo not drawn) | 3T3-L1 pre-adipocytes | cell viability, MTT | – | 72 h | – | IC50 | > 100 µg/mL |
| O=C(NC1(O)C(=O)c2ccccc2C1=O)c1cccc2c1-c1ccccc1C2=O | HEK293-A GFP-LC3B | LC3B puncta formation | – | 22 h, with: chloroquine, torin1 | – | IC50 | > 20 µM |
| Cn1ncc(-c2ccc3c(=O)[nH]nc(CN)c3c2)c1-c1c(F)c(Cl)cc(OC2CC2)c1C#N | SW780 | cell viability, inhibitor, CellTiter-Glo | – | 120 h, baseline-subtracted | – | IC50 | 0.02 µM |
| CCn1nc(Cl)c2c1-c1cnc(N)c(c1)O[C@H](C)c1cc(F)ccc1-c1nn(C)cc1C2 | Ba/F3 EML4-ALK variant 1 | cell viability | – | – | – | IC50 | 0.0017 µM |
| CNS(=O)(=O)Nc1nccc(Cc2c(C)c3ccc(Oc4ncccc4F)cc3oc2=O)c1F | HT-3 | cell viability | – | 7 days | – | IC50 | > 1 µM |
| O=C(NCc1cc(F)cc(F)c1)[C@@]1(O)CCN(c2ccc3[nH]ccc3c2)C1=O | PAXF736 | colony formation | – | – | – | IC50 | 0.14 µM |

| Structure (SMILES) | tested on | assay | test system | setting | how to read | endpoint | result |
| --- | --- | --- | --- | --- | --- | --- | --- |
| O=C1C(=O)N(CN2CCc3c([nH]c4ccccc34)C2C(F)(F)F)c2ccc(F)cc21 (stereo not drawn) | HEK293-A GFP-LC3B | LC3B puncta formation | – | 22 h, with: chloroquine, torin1 | – | IC50 | > 20 µM |
| CNC(=O)C1CCCN(C(=O)C2CC3CCC2N3C(=O)[C@@H]2C[C@@H](O)CN2C(=O)NCc2cccc(Cl)c2F)C1 (mixture of isomers) | Cytochrome P450 2D6 (CYP2D6, Homo sapiens, UniProt P10635) | enzyme activity, inhibitor, time-dependent inhibition | – | 0.0686 µM, preincubated without NADPH | reference: negative control | remaining activity | 101% |
| C=CC(=O)N1CCCC(n2c(=O)c3ncccc3n(Cc3ccc(Oc4ccccc4)cc3)c2=O)C1 (stereo not drawn) | CLBL-1 | cell growth or viability, MTT | – | 72 h | – | IC50 | 0.3 µM |
| Cc1nn(-c2cccc(N)c2)c(=O)c2cnc(Nc3ccc(N4CCNCC4)cc3)nc12 | MAPK14 (Homo sapiens, UniProt Q16539) | SelectScreen kinase | – | – | – | IC50 | 0.757 µM |
| N#Cc1c(N)nc2c(c1-c1ccccc1)Cc1cc(O)ccc1-2 | HH | cell growth or viability, ATP luminescence | – | – | – | IC50 | 15.2 µM |
| CC(C)(C)c1cnc(CSc2cnc(NC(=O)C3CCN(C(=O)CCCCCCN4Cc5cc6c(cc5C4)C(=O)N(C4CCC(=O)NC4=O)C6=O)CC3)s2)o1 (stereo not drawn) | A673 | cell growth or viability, MTT | – | – | – | IC50 | 0.0438 µM |
| O=C(N/N=C/c1cc[n+](Cc2ccccc2)c2ccccc12)N/N=C/c1cc[n+](Cc2ccccc2)c2ccccc12 | myc22 MYC G4-DNA parallel | FRET melting | – | 1 µM, K1 buffer, DNA 0.2 µM | – | ΔTm | 8.6 ± 0.4 °C |
| Cc1ccc(N2C(=O)CCSC23C(=O)N(Cc2ccc(F)cc2)c2ccccc23)cc1C (stereo not drawn) | HEK293-A GFP-LC3B | LC3B puncta formation | – | 22 h, with: chloroquine, torin1 | – | IC50 | 11.2 µM |
| CCOc1cncc(-c2ccc(NC(=O)C3(c4ccnc(NS(=O)(=O)C5CC5)n4)CCOCC3)nc2)n1 | Malme-3M | cell proliferation, CellTiter-Glo | – | 72 h, Melanoma cancer | – | IC50 | 10 µM |
| C=CC(=O)N1C[C@H](C)N(c2nc(OC[C@@]34CCCN3C[C@H](F)C4)nc3c(F)c(-c4ccc(F)c5sc(N)c(C#N)c45)c(C(F)(F)F)cc23)C[C@H]1C | Ba/F3 expressing KRAS G12C/Y96D | cell viability, CellTiter-Glo | – | 3 days | – | IC50 | 0.0035 µM |
| CC1(C)CC(=O)C2=C(C1)Oc1cc(O)ccc1C2c1c[nH]c2ccccc12 (stereo not drawn) | 3T3-L1 pre-adipocytes | cell viability, MTT | – | 72 h | – | IC50 | 70.3 ± 1.04 µg/mL |
| CC(C)c1ccc(N(C)c2ccc3c(c2)OCC[C@H]3CNc2cnccc2C(=O)O)cc1 | NCI-H1563 | cell growth or viability, ATP luminescence | – | 7 days | – | IC50 | ≥ 10 µM |
| CCOC(=O)/C=C1\S/C(=N\N=C\c2cccc3cc4ccccc4nc23)N(c2ccc(F)cc2)C1=O | PATU | cell proliferation, MTT | – | 48 h | – | IC50 | > 50 µM |
| C=CC(=O)Nc1cccc(Cn2ncc3cnc(Nc4cnn(CCOC)c4)nc32)c1 | TAOK1 human | binding, KINOMEscan | – | 100 nM | lower = stronger binding | percent of control | 27% |
| COc1cc(-n2cc3cc(F)cc(C(N)=O)c3n2)cc(Cl)c1C1CC(O)(CCO)Cc2ccccc21 (stereo not drawn) | SNU1 | cell growth or viability, MTT | – | 72 h | – | IC50 | 0.11 µM |
| N#Cc1c(N)nc2c(c1-c1ccc(CO)o1)Cc1cccc(O)c1-2 | HH | cell viability, CellTiter-Glo | – | – | no inhibition at 100 µM | IC50 | > 100 µM |
| CCCN1C(=O)CS/C1=N\N=C\c1cccc2cc3ccccc3nc12 | PATU | cell proliferation, MTT | – | 48 h | – | IC50 | 24.2 ± 3.9 µM |
| CC1(C)CC(=O)C2=C(C1)Oc1ccccc1C2Sc1ccccc1 (stereo not drawn) | 3T3-L1 pre-adipocytes | cell viability, MTT | – | 72 h | – | IC50 | 59.7 ± 3.01 µg/mL |
| CC(C)C[C@H](NC(=O)[C@H](Cc1ccc(O)cc1)NC(=O)[C@@H](CCCNC(=N)N)NC(=O)[C@@H](CO)NC(=O)[C@H](Cc1ccccc1)NC(=O)[C@H](CC1CCCCC1)NC(=O)[C@H](CC(=O)O)NC(=O)CN1CCN(CC(=O)O)CCN(CC(=O)O)CCN(CC(=O)O)CC1)C(=O)N[C@@H](Cc1c[nH]c2ccccc12)C(=O)N[C@@H](CO)C(=O)O [copper-64 labelled] | – | – | human, red marrow | concentration not given, 24 h | – | activity concentration | 508 Bq/mL and 327 Bq/mL and 490 Bq/mL and 279 Bq/mL and 494 Bq/mL and 558 Bq/mL |
| C=C(NC(=O)c1csc(-c2nc3c(cc2O)-c2nc(cs2)C(=O)NC(C(C)O)C(=O)NC(=C(C)OC)c2nc(cs2)C(=O)NC2c4nc(cs4)C(=O)NC(COC(=O)c4c5c6c(cccc6n4O)COC(=O)C(OC4CC(C)(O)C(N(C)C)C(C)O4)C2OC5)c2nc-3cs2)n1)C(N)=O (stereo not drawn) | – | – | Sprague-Dawley rat, male, plasma | intravenous infusion, 6 mg/kg, multiple doses, day 1 | – | half-life | 5.51 h |
| C=CC(=O)Nc1ccc(F)c(-c2ncnc3[nH]cc(C(=O)OCC)c23)c1 | mouse CD4 T-cell blasts | phosphoflow, item: STAT5 phosphorylation | – | 2 h pretreatment, with: IL-2 50 U/mL | – | IC50 | 0.0472 ± 0.0045 µM |
| CC1(C)CC(=O)C2=C(C1)Oc1ccc3ccccc3c1C2c1c[nH]c2ccccc12 (stereo not drawn) | 3T3-L1 pre-adipocytes | cell viability, MTT | – | 72 h | – | IC50 | > 100 µg/mL |

Excerpt of the above:
| Structure (SMILES) | tested on | assay | test system | setting | how to read | endpoint | result |
| --- | --- | --- | --- | --- | --- | --- | --- |
| CC(C)(C)c1cnc(CSc2cnc(NC(=O)C3CCN(C(=O)CCCCCCN4Cc5cc6c(cc5C4)C(=O)N(C4CCC(=O)NC4=O)C6=O)CC3)s2)o1 (stereo not drawn) | A673 | cell growth or viability, MTT | – | – | – | IC50 | 0.0438 µM |
| CCN(C(=O)c1cc(F)ccc1Oc1nncnc1N1CCC2(C1)CN([C@H](CCCN(C)CCOC)C(C)C)C2)C(C)C | MV4-11 (KMT2A-AF4, FLT3-ITD) | mRNA level, QuantiGene multiplex, item: PBX3 | – | – | – | IC50 | 0.028 ± 0.003 µM |
| C=CC(=O)Nc1ccc(F)c(-c2ncnc3[nH]cc(C(=O)OCC)c23)c1 | mouse CD4 T-cell blasts | phosphoflow, item: STAT5 phosphorylation | – | 2 h pretreatment, with: IL-2 50 U/mL | – | IC50 | 0.0472 ± 0.0045 µM |
| C=CCOCO[C@H](C(=O)NC[C@@H]1C[C@@H](OC)C(C)(C)[C@@H](C[C@@H](COC)OC)O1)[C@@]1(OC)CC(=C)[C@@H](C)[C@@H](C)O1 | Renca | cell viability, sulforhodamine B | – | 72 h, 37 °C, without H2O2 | – | IC50 | 2.46 ± 0.075 µM |
| Cc1ccc([N+](=O)[O-])cc1S(=O)(=O)N(C)/N=C/c1cnc2ccc(Br)cn12 | SN12C | MTS | – | NCI60 panel | – | IC50 | 0.468 µM |
| C=CC(=O)N1C[C@H](C)N(c2nc(OC[C@@]34CCCN3C[C@H](F)C4)nc3c(F)c(-c4ccc(F)c5sc(N)c(C#N)c45)c(C(F)(F)F)cc23)C[C@H]1C | Ba/F3 expressing KRAS G12C/Y96D | cell viability, CellTiter-Glo | – | 3 days | – | IC50 | 0.0035 µM |
